# Published values of several laboratories.
# Parts stem from different laboratories: compare values within a part only. Changes are numbered by the printed parent chain.

# Series 1
# Target: UBE2Q2 UBC core domain (UniProt Q8WVN8)
# Chain of UniProt Q8WVN8 (whole entry, looked up): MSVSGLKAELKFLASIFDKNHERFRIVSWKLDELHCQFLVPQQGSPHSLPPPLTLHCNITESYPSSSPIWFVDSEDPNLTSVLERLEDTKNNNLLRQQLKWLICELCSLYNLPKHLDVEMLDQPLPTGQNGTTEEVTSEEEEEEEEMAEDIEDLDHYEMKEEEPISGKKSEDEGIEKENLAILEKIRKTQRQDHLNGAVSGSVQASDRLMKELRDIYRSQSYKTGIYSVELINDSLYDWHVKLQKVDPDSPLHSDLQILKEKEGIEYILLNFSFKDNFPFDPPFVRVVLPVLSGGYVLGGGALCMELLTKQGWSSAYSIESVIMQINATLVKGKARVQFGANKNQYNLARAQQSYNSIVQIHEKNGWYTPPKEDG
# Method: yeast two-hybrid
# Medium: yeast
# Setting: mostly zero background
# Reference: not given
# Reading: higher = stronger interaction
# B1: TRIML1 RING domain (UniProt Q8N9V2); chain LMENLREELTCFICLDYFSSPVTTECGHSFCLVCLLRSWEEHNTPLSCPECWRTLEGPHFQS
# B2: TRAF5 RING domain (UniProt O00463); chain FVERLEERYKCAFCHSVLHNPHQTGCGHRFCQHCILSLRELNTVPICPVDKEVIKSQEVFK
# B3: TRIM5 RING domain (UniProt Q9C035); chain ILVNVKEEVTCPICLELLTQPLSLDCGHSFCQACLTANHKKSMLDKGESSCPVCRISYQPENIRP
# B4: RNF208 RING domain (UniProt Q9H0X6); chain SSAAAGEPLECPTCGHSYNVTQRRPRVLSCLHSVCEQCLQILYESCPKYKFISCPTCRRETVLFTDYG
# B5: RC3H1 RING domain (UniProt Q5TC82); chain QAPQWTDFLSCPICTQTFDETIRKPISLGCGHTVCKMCLNKLHRKACPFDQTTINTDIELL
# B6: TRIM13 RING domain (UniProt O60858); chain MELLEEDLTCPICCSLFDDPRVLPCSHNFCKKCLEGILEGSVRNSLWRPAPFKCPTCRKETSATGINS
# B7: RNF111 RING domain (UniProt Q6ZNA4); chain EGTEEDTEEKCTICLSILEEGEDVRRLPCMHLFHQVCVDQWLITNKKCPICRVDIEAQLPSE
# B8: MKRN1 RING domain (UniProt Q9UHC7); chain FAVQRSKDMVCGICMEVVYEKANPSERRFGILSNCNHTYCLKCIRKWRSAKQFESKIIKSCPECRITSNFVIPSE
Molecule,lacZ reporter activity
B1 (TRIML1 RING domain),0
QVDKAVFHMQSVKCLKCQEQKRAVLPCQHAALCELCAEGSECPICQPGRAHTLQS (UNK RING domain (UniProt Q9C0B0)),0
B2 (TRAF5 RING domain),0
B3 (TRIM5 RING domain),0
GAAPGPEAAECLVCSELALLVLFSPCQHRTVCEECARRMKKCIRCQVVVSKKLRPD (MIB2 RING domain (UniProt Q96AX9)),0
B4 (RNF208 RING domain),0
ASLPTSEEDLCPICYAHPISAVFQPCGHKSCKACINQHLMNNKDCFFCKTTIVSVEDWE (RNF123 RING domain (UniProt Q5XPI4)),0
B5 (RC3H1 RING domain),0
B6 (TRIM13 RING domain),0
B7 (RNF111 RING domain),0
B8 (MKRN1 RING domain),0

# Series 2
# Target: CCND2, cyclin fold, Cln2 fusion (human)
# Method: yeast growth competition, sequencing
# Medium: yeast
# Setting: weak parent motif
# Reference: not given
# Reading: higher = stronger binding
# Starting sequence: GMNC docking peptide (human); KNAKRNLSSEFAN; partner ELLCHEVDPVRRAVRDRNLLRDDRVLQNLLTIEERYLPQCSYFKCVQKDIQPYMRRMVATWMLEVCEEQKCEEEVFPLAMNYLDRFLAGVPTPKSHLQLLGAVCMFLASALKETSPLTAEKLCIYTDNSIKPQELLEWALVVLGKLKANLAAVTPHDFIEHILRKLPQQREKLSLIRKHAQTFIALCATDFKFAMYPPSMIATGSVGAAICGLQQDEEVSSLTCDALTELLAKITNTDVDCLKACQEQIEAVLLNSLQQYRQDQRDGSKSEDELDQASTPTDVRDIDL
Variant,normalised enrichment score
K4V,0.371
A12W,0.181
E10K,-0.41
L7I,0.252
K4H,-0.305
S8R,0.179
E10T,-0.243
A12I,0.324
N2A,0.187
A12V,-0.0757
S9C,0.32
S8V,0.172
A3M,0.524
F11C,0.291
L7E,0.0367
K4W,-0.0823
A3I,0.355

# Series 3
# Target: Interferon regulatory factor 7, full length, phosphomimetic (IRF7, Homo sapiens, UniProt Q92985, residues 1-503, S101K/S471D/S472D/S475D/S476D/S477D/S483D/S484D/S487D)
# Method: protein-binding microarray
# Molecule type: double-stranded DNA, one strand shown
# Medium: in vitro
# Tested at: 250 nM
# Setting: 60-bp whole probe
# Added: salmon DNA 0.4 mg/ml
# Reference: random background probes
# Reading: higher = stronger binding
# All sequences stand within: GCCTAGCAC … GTCTTGATTCGCTTGACGCTGCTG
# Construct (chain): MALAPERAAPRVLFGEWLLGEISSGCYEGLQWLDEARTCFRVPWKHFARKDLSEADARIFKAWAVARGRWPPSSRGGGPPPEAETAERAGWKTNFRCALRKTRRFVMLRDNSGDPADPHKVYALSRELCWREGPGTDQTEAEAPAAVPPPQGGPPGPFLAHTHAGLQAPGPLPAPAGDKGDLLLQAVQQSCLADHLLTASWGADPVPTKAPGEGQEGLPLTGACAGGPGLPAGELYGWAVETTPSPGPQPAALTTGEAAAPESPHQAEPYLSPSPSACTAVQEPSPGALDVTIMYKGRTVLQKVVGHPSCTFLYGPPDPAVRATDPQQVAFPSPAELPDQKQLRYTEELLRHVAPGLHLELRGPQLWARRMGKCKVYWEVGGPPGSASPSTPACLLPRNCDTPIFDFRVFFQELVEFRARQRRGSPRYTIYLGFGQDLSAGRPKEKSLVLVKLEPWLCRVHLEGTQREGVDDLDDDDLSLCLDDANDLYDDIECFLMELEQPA
Strand,log fluorescence
GTGATTTCAGTTTTCTTTTCGTGCTAG,3.11 z-score
TTAGGTATCCTTCTCCCTTAGTGCTAG,0.626 z-score
TCAGACTTTGGTTTGTAACTGTGCTAG,0.0599 z-score
TCATCTTGCTTTTTAGAACTGTGCTAG,0.436 z-score
TTAGGTATCTACTTTCGGTTAGTGCTA,2.84 z-score
TCACCAATCTCTCTTCAACTGTGCTAG,-0.159 z-score
GACTGTTTCGGGACTGGGGACGTGCTA,1.62 z-score
GACGGTTTCGACTATCGGGTCGTGCTA,5.88 z-score
CCAGGGACAAAGCGGTGCGAGTGCTAG,-0.562 z-score
TCAGATTTCAATTAGAAACTGTGCTAG,1.34 z-score
TAAGAACTGAGTTTCGATTAGTGCTAG,8.57 z-score
GACCATTTCAGTCTCGAGACGTGCTAG,1.88 z-score
GACGGTCTCAGACTGGGGACGTGCTAG,-0.259 z-score
TTAGGTTTCGGTTTTCGGTTAGTGCTA,14 z-score
TTAGATAGCGGGACTGGATTAGTGCTA,-0.315 z-score
TTAGGTATCCTTATCCTCTAGTGCTAG,0.457 z-score
GACGGTATCGGGTTTCGGCACGTGCTA,1.8 z-score
TCAACTTTCCAAAACATACTGTGCTAG,0.576 z-score
TTAGAACTGAGTATGGATTAGTGCTAG,-0.105 z-score

# Series 4
# Target: ABI1, truncated, D143A, DHFR fusion (Arabidopsis thaliana)
# Method: DHFR PCA, deep sequencing
# Medium: yeast
# Setting: methotrexate growth selection, single substitutions
# Added: (+)-ABA 2500 µM
# Reference: wild-type fitted maximum
# Reading: higher = stronger binding
# Starting sequence: PYL1, truncated, DHFR fusion (Arabidopsis thaliana); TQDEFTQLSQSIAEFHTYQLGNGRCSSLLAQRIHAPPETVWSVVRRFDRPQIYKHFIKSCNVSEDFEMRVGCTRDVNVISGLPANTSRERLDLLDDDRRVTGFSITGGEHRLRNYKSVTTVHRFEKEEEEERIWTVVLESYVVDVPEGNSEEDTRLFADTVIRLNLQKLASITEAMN; partner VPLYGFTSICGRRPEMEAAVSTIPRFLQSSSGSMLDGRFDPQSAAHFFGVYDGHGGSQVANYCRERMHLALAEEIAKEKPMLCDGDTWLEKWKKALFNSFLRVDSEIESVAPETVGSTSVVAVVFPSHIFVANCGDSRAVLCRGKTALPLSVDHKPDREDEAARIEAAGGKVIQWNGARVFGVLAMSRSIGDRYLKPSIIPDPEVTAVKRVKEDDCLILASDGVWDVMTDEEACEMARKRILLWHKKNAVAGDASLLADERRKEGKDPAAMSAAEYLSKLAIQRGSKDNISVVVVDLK
Variant,relative binding score [%]
R69A,92.2
Y115M,92.6
L91I,78.9
D159H,80.2
C60W,30.6
S9Y,95.4
R98Y,100
R132H,104
L138P,-10
S9H,109
E147A,97.2
E14V,89.3
E109C,94.8

# A few entries again (series 3):
Strand,log fluorescence
TTAGGTATCTACTTTCGGTTAGTGCTA,2.84 z-score
GACTGTTTCGGGACTGGGGACGTGCTA,1.62 z-score
GACGGTATCGGGTTTCGGCACGTGCTA,1.8 z-score
TTAGGTATCCTTCTCCCTTAGTGCTAG,0.626 z-score
